Experimental data from different studies.
Compare with care: the assays were run in different laboratories. Several values in a cell are separate wells, animals, samples, runs or records. ± gives the spread as reported.
GBA2: Beta-glucosidase (GBA2, Homo sapiens, UniProt Q9HCG7)
B4GALT1: Beta-1,4-galactosyltransferase 1 (B4GALT1, Homo sapiens, UniProt P15291)
CASP3: Caspase-3 (CASP3, Homo sapiens, UniProt P42574)

| Compound | target | assay | test system | conditions | scale | quantity | value |
| --- | --- | --- | --- | --- | --- | --- | --- |
| C[C@H](OCCCCCN1C[C@H](O)[C@@H](O)[C@H](O)[C@H]1CO)c1ccc(-c2ccccc2)cc1 | GBA2 | inhibitor, 4MU-β-D-glucopyranoside | HEK293T homogenates overexpressing GBA2 | – | reference: GBA1 IC50 over GBA2 IC50 | selectivity ratio | 133000 |
| COc1cccc(C)c1C(=O)N[C@@H](Cc1ccc(O)cc1)C(=O)O | B4GALT1 | enzyme activity, inhibitor, UDP-Glo | – | 10 µM | lower means stronger inhibition | luminescence | 62100 a.u. |
| OC[C@H]1[C@@H](O)[C@H](O)[C@@H](O)CN1CCCCCOCc1ccc(-c2ccccc2)c(F)c1 | GBA2 | inhibitor, 4MU-β-D-glucopyranoside | HEK293T homogenates overexpressing GBA2 | – | reference: GCS IC50 over GBA2 IC50 | selectivity ratio | 4 |
| CCc1ccc2oc(=O)cc(Cn3ccnc3)c2c1 | ADRA1B (Homo sapiens, UniProt P35368) | intracellular Ca2+ mobilization, agonist | COS-7 | 500 µM | reference: 3 µM ionomycin | agonist activity | 18.6 ± 8.26% |
| CC(=O)N[C@@H](Cc1ccc(O)cc1)C(=O)N[C@@H](CCCCN)C(=O)N[C@@H](C)C(=O)N[C@@H](CC(=O)O)C(=O)COC(=O)c1c(C)cccc1C | CASP3 | enzyme activity, inhibitor | – | – | – | kinact/KI | 8600 M⁻¹ s⁻¹ |
| CC[C@H](C)[C@@H]1NC(=O)[C@H]([C@@H](C)O)NC(=O)CNC(=O)[C@H](CCCNC(=N)N)NC(=O)[C@H](CC(C)C)NC(=O)[C@@H]2CSSC[C@H](NC1=O)C(=O)N[C@H](C(=O)N[C@@H](CO)C(=O)NCC(N)=O)CSSC[C@H](NC(=O)[C@H](C)N)C(=O)N[C@@H](C)C(=O)N[C@@H](Cc1c[nH]c3ccccc13)C(=O)N2 | Chymotrypsinogen A, activated (alpha-chymotrypsin) (Bos taurus, UniProt P00766) | surface plasmon resonance | – | pH 7.4, 25 °C, 2% DMSO, 0.005% Tween-20, 1:1 model | – | dissociation rate constant | 0.0041 s⁻¹ |
| CCN(CC)C(CO)c1cccc2c(C)c(C)oc12 (stereo not shown) | LPAR1 (Homo sapiens, UniProt Q92633, W271F) | G-protein dissociation, agonist, NanoBiT | HEK-293T | 10 nM, W271F mutant | reference: baseline luminescence | fold change | 0.729 and 0.851 and 0.808 and 0.765 and 0.905 and 0.621 |
| CC1(C)CN=C(c2ccc(-c3ccc(-c4ccc(C5=NCC(C)(C)CN5)cc4)o3)cc2)NC1 | PRMT5 (Homo sapiens, UniProt O14744) | enzyme activity, inhibitor, radiometric | – | 20 µM | – | remaining activity | 86.2% |
| CCCCCCCCCCCCCCCC(=O)N[C@@H](CCCNC(=N)N)C(=O)NCCCC[C@H](NC(=O)[C@H](CCC(N)=O)NC(=O)[C@H](Cc1c[nH]cn1)NC(=O)[C@H](CCCC)NC(=O)[C@H](CC(C)C)NC(=O)[C@H](CCC(N)=O)NC(=O)[C@@H](NC(=O)[C@H](CCC(=O)O)NC(=O)C(C)(C)NC(=O)[C@@H](NC(=O)C1(N)CCCC1)C(C)C)[C@@H](C)CC)C(N)=O | PTH1R (Homo sapiens, UniProt Q03431) | cAMP response, agonist, GloSensor cAMP | GP-2.3 | ligand-on phase | – | Emax (normalized AUC) | 106 ± 6% |
| N#CN1CC[C@H](C(=O)Nc2nc3c(s2)CN(C(=O)Cn2cc(CNC(=O)CCCC[C@@H]4SC[C@@H]5NC(=O)N[C@@H]54)nn2)CC3)C1 | USP9X (Homo sapiens, UniProt Q93008) | probe binding, affinity probe, neutravidin pull-down LC-MS/MS | HEK293T, cell lysate | 5 µM, 1 h, mean of three replicates, unit not given | higher = more pulled down | iBAQ abundance | 2.03e+06 |
| CCCCCCCCN1C[C@H](O)[C@@H](O)[C@H](O)[C@@H]1CO | GBA2 | inhibitor, 4MU-β-D-glucopyranoside | HEK293T homogenates overexpressing GBA2 | – | reference: GBA1 IC50 over GBA2 IC50 | selectivity ratio | 1160 |
| O=C(C(C(F)(F)F)C(F)(F)F)N1CCOc2ccccc21 | Chymotrypsinogen A (Bos taurus, UniProt P00766) | enzyme activity, inhibitor | – | – | – | IC50 | inactive |
| O=C1c2sc(-c3ccc(N4CCC(F)C4)nc3F)nc2CCN1c1cccnc1 (stereo not shown) | TAR DNA-binding protein 43, aggregated (TARDBP, Homo sapiens, UniProt Q13148) | radioligand binding | human, FTLD-TDP type B extract | together with: radioligand 52.06 nM | – | specific binding | 3.73 nM and 4.42 nM |
| O=C(O)/C=C\C(=O)c1ccc(O)cc1 | B4GALT1 | enzyme activity, inhibitor, UDP-Glo | – | 10 µM | lower means stronger inhibition | luminescence | 51400 a.u. |
| C=CC(=O)N1CCCC(n2c(=O)c3ncccc3n(Cc3ccc(Oc4ccccc4)cc3)c2=O)C1 (stereo not shown) | Sorting nexin-1 (SNX1, Homo sapiens, UniProt Q13596) | thermal proteome profiling | cell proteome | treated | – | melting temperature | 41.8 °C and 51.3 °C |
| Cc1ccc(CN)cc1 | Maoa (Rattus norvegicus, UniProt P21396) | enzyme activity, substrate | – | pH 7.5 | – | Km | 55 µM |
| CCN(CC)C(=O)c1ccc(O)c(OC)c1 | Heat shock protein HSP 90-alpha, N-terminal domain (HSP90AA1, Homo sapiens, UniProt P07900) | binding, ligand-observed NMR titration | – | 9.90 µM, ligand to protein ratio 202 | – | bound ligand fraction | 0.36 |
| CCCCCC(O)/C=C/C=O (stereo not shown) | Reticulon-4 (RTN4, Homo sapiens, UniProt Q9NQC3) | competitive isoTOP-ABPP | Ramos soluble proteome | 100 µM, together with: iodoacetamide probe | reference: DMSO over compound-treated, higher = stronger cysteine blockade | isoTOP-ABPP competition ratio | 10 |
| CC(=O)c1cnc(N)nc1N1CC[C@H]1c1nn2ccc(Cl)c2c(=O)n1-c1ccccc1 | PIK3CG (Homo sapiens, UniProt P48736) | KiNativ | intact human PBMC | 1 µM, 1 h | – | target engagement | 82% |
| C=CC(=O)N1C[C@H](C)N(c2nc(OC[C@@]34CCCN3C[C@H](F)C4)nc3c(F)c(-c4ccc(F)c5sc(N)c(C#N)c45)c(C(F)(F)F)cc23)C[C@H]1C | GTPase KRas, GppNHp-bound (KRAS, Homo sapiens, UniProt P01116, Q61R) | binding | – | – | – | dissociation rate constant | 0.551 ± 0.0028 s⁻¹ |
| OC[C@@H]1[C@@H](O)[C@H](O)[C@@H](O)CN1CCCCCOCc1ccccc1 | GBA2 | inhibitor, 4MU-β-D-glucopyranoside | HEK293T homogenates overexpressing GBA2 | – | reference: GCS IC50 over GBA2 IC50 | selectivity ratio | 750 |
| Nc1nc(SCc2ccc(Cl)cc2)nn1S(=O)(=O)c1ccccc1 | LYPLAL1 (Homo sapiens, UniProt Q5VWZ2) | enzyme activity, activator, gel-based ABPP | purified protein | concentration not given, together with: FP-rhodamine | reference: DMSO | probe labeling increase | 2.7 fold |
| OC[C@@H]1[C@@H](O)[C@H](O)[C@@H](O)CN1CCCCCOCc1ccc(-c2ccccc2)cc1F | GBA2 | inhibitor, 4MU-β-D-glucopyranoside | HEK293T homogenates overexpressing GBA2 | – | reference: GCS IC50 over GBA2 IC50 | selectivity ratio | 313 |
| CC[C@H](NC(=O)[C@H](CC(C)C)NC(=O)[C@H](CC(=O)O)NC(C)=O)C(=O)N[C@@H](CC(=O)O)C(=O)COC(=O)c1c(C)cccc1C | CASP3 | enzyme activity, inhibitor | – | – | – | kinact/KI | 1.79e+06 M⁻¹ s⁻¹ |
| CC(C)=CCC/C(C)=C/CC/C(C)=C/CN1C[C@H](O)[C@@H](O)[C@H](O)[C@H]1CO | GBA2 | inhibitor, 4MU-β-D-glucopyranoside | HEK293T homogenates overexpressing GBA2 | – | reference: GBA1 IC50 over GBA2 IC50 | selectivity ratio | 87 |
| CC(=O)N[C@H](C(=O)N[C@@H](CCC(=O)O)C(=O)N[C@@H](C)C(=O)N[C@@H](CC(=O)O)C(=O)COC(=O)c1c(C)cccc1C)C(C)C | CASP3 | enzyme activity, inhibitor | – | – | – | kinact/KI | 306000 M⁻¹ s⁻¹ |
| CC(C)[C@@H]1NC(=O)[C@H](Cc2ccccc2)NC(=O)CSC[C@@H](C(N)=O)NC(=O)[C@H](CCC(=O)O)NC(=O)[C@H](CO)NC(=O)[C@H](Cc2c[nH]c3cccc(Cl)c23)NC(=O)[C@H](C2CCCCC2)NC(=O)[C@H](C(C)C)NC(=O)[C@H](Cc2ccc(O)cc2)NC(=O)[C@H](CC(=O)O)NC(=O)[C@H](Cc2c[nH]c3ccccc23)NC(=O)[C@H](Cc2ccc(N)nc2)NC(=O)[C@H](Cc2c[nH]c3ccc(Cl)cc23)NC(=O)[C@H](CCC(=O)O)NC1=O | Interleukin-1 receptor-like 2 (IL1RL2, Homo sapiens, UniProt Q9HB29) | reporter gene (SEAP), inhibitor, HEK-Blue IL-36R reporter | HEK-Blue IL-36R cells | 3.7 µM, 6 h, together with: IL-36γ 30 ng/mL | – | remaining activity | 102% |
| OC[C@@H]1[C@@H](O)[C@H](O)[C@@H](O)CN1CCCCCOCC1CCCCC1 | GBA2 | inhibitor, 4MU-β-D-glucopyranoside | HEK293T homogenates overexpressing GBA2 | – | reference: GBA1 IC50 over GBA2 IC50 | selectivity ratio | 375 |

Repeated from above:
| Compound | target | assay | test system | conditions | scale | quantity | value |
| --- | --- | --- | --- | --- | --- | --- | --- |
| CC(C)=CCC/C(C)=C/CC/C(C)=C/CN1C[C@H](O)[C@@H](O)[C@H](O)[C@H]1CO | GBA2 | inhibitor, 4MU-β-D-glucopyranoside | HEK293T homogenates overexpressing GBA2 | – | reference: GBA1 IC50 over GBA2 IC50 | selectivity ratio | 87 |
| CC(=O)N[C@H](C(=O)N[C@@H](CCC(=O)O)C(=O)N[C@@H](C)C(=O)N[C@@H](CC(=O)O)C(=O)COC(=O)c1c(C)cccc1C)C(C)C | CASP3 | enzyme activity, inhibitor | – | – | – | kinact/KI | 306000 M⁻¹ s⁻¹ |
| CC(C)[C@@H]1NC(=O)[C@H](Cc2ccccc2)NC(=O)CSC[C@@H](C(N)=O)NC(=O)[C@H](CCC(=O)O)NC(=O)[C@H](CO)NC(=O)[C@H](Cc2c[nH]c3cccc(Cl)c23)NC(=O)[C@H](C2CCCCC2)NC(=O)[C@H](C(C)C)NC(=O)[C@H](Cc2ccc(O)cc2)NC(=O)[C@H](CC(=O)O)NC(=O)[C@H](Cc2c[nH]c3ccccc23)NC(=O)[C@H](Cc2ccc(N)nc2)NC(=O)[C@H](Cc2c[nH]c3ccc(Cl)cc23)NC(=O)[C@H](CCC(=O)O)NC1=O | Interleukin-1 receptor-like 2 (IL1RL2, Homo sapiens, UniProt Q9HB29) | reporter gene (SEAP), inhibitor, HEK-Blue IL-36R reporter | HEK-Blue IL-36R cells | 3.7 µM, 6 h, together with: IL-36γ 30 ng/mL | – | remaining activity | 102% |
| OC[C@@H]1[C@@H](O)[C@H](O)[C@@H](O)CN1CCCCCOCC1CCCCC1 | GBA2 | inhibitor, 4MU-β-D-glucopyranoside | HEK293T homogenates overexpressing GBA2 | – | reference: GBA1 IC50 over GBA2 IC50 | selectivity ratio | 375 |
